# Assay results collected from several papers.
# Organism: Mycobacterium tuberculosis
SMILES,test,test system,conditions,measurement,result
Cc1ccc(NCc2ccc(Oc3ccccn3)cc2)cc1,,"H37Rv, 7H9/ADC/Tween medium",1 weeks,MIC,86 µM
CCCCCCCCC[C@@H]1C[C@@H]1C(=O)NS(=O)(=O)OC[C@H]1O[C@@H](n2cnc3c(N)ncnc32)[C@H](O)[C@@H]1O,broth microdilution,"H37Rv, GAST medium",MIC at >99% growth inhibition,MIC,50 to 100 µM
CC(C)=CCC/C(C)=C/CNCCNC1C2CC3CC(C2)CC1C3 (stereo not shown),growth,HN878,,IC50,400 to 1000 nM
NCC[C@H](O)C(=O)N[C@@H]1C[C@H](N)[C@@H](O[C@H]2O[C@H](CN)[C@@H](O)[C@H](O)[C@H]2O)[C@H](O)[C@H]1O[C@H]1O[C@H](CO)[C@@H](O)[C@H](N)[C@H]1O,"microbial growth, resazurin",H37RV,,IC50,0.072 µg/mL
Cc1ccn2c(C(=O)NCc3ccccc3)c(C)nc2c1,microplate alamar blue,"H37Rv (ATCC 27294), 7H12 medium","replicating bacteria, range",MIC,1.9 to 2.7 µM
Nc1ncnc2c1ncn2[C@@H]1O[C@H](COS(=O)(=O)NC(=O)CCCCCCCCCCOc2cccc(F)c2)[C@@H](O)[C@H]1O,broth microdilution,"H37Rv, GAST medium",MIC at >99% growth inhibition,MIC,25 to 50 µM
c1ccc(NCc2ccc(Oc3ccccn3)cc2)cc1,,"H37Rv, 7H9/ADC/Tween medium",1 weeks,MIC,> 50 µM
Cc1nc2ncccn2c1C(=O)OCc1ccccc1,microplate alamar blue,"H37Rv (ATCC 27294), 7H12 medium","replicating bacteria, range",MIC,3.2 to 5.2 µM
CCCCCCCCCOCC(=O)NS(=O)(=O)OC[C@H]1O[C@@H](n2cnc3c(N)ncnc32)[C@H](O)[C@@H]1O,broth microdilution,"H37Rv, GAST medium",MIC at >99% growth inhibition,MIC,0.098 to 3.13 µM
CC(C)=CCCC(C)=CCNCCNC1(C)C2CC3CC(C2)CC1C3 (stereo not shown),growth,H37Rv,,IC50,2000 nM
Cc1cccc(NCc2ccc(Oc3ccccn3)cc2)c1,,"H37Rv, 7H9/ADC/Tween medium",2 weeks,MIC,> 100 µM
O=C(OCc1ccccc1)[C@@H]1CSC(c2ccccc2)=N1,microplate alamar blue,"H37Rv (ATCC 27294), 7H12 medium","replicating bacteria, range",MIC,7.7 to 17.4 µM
NNC(=O)c1ccncc1,,"H37Rv, GAST-Fe medium","1 weeks, pH 6.6",MIC,0.2 µM
O=C(OCc1ccccc1)[C@@H]1COC(c2ccccc2)=N1,microplate alamar blue,"H37Rv (ATCC 27294), 7H12 medium","replicating bacteria, range",MIC,3.8 to 24 µM
CCCCCCCCCCC(C)(C)C(=O)NS(=O)(=O)OC[C@H]1O[C@@H](n2cnc3c(N)ncnc32)[C@H](O)[C@@H]1O,broth microdilution,"H37Rv, GAST medium",MIC at >99% growth inhibition,MIC,12.5 to 25 µM
Clc1ccccc1NCc1ccc(Oc2ccccn2)cc1,,"H37Rv, GAST-Fe medium","1 weeks, pH 6.6",MIC,20.1 µM
